Published values of several laboratories.
Several values in a cell are separate wells, animals, samples, runs or records. ± marks the error that the study gave.
HTR2A: 5-hydroxytryptamine receptor 2A (HTR2A, Homo sapiens, UniProt P28223)
Protein kinase C-like 1: Protein kinase C-like 1 (Candida albicans, UniProt P43057)
BIRC3 BIR1 domain: Baculoviral IAP repeat-containing protein 3, BIR1 domain (BIRC3, Homo sapiens, UniProt Q13489)

`NC(=O)C1=CN([C@@H]2O[C@H](COP(=O)(O)OP(=O)(O)OC[C@H]3O[C@@H](n4cnc5c(N)ncnc54)[C@H](O)[C@@H]3O)[C@@H](O)[C@H]2O)C=CC1` has a Km of 18 ± 5.6 µM (FSP1; oxidase activity, substrate, nitroblue tetrazolium superoxide; added: atmospheric O2).
`C=CC(=O)N1CCN(c2nc(OC[C@@H]3CCCN3C)nc3c(F)c(-c4nc(N)cc(C)c4C(F)(F)F)c(Cl)cc23)[C@@H](C)C1`: “association rate constant” 63800 ± 17000 M⁻¹ s⁻¹ (GTPase KRas, GDP-bound (KRAS, Homo sapiens, UniProt P01116, G12D); binding, surface plasmon resonance).
With `Nc1ccc(C(=O)O)cc1` the current density was 205 pA/pF and 108 pA/pF and 87.8 pA/pF and 128 pA/pF and 173 pA/pF and 199 pA/pF and 148 pA/pF (BEST1 (Homo sapiens, UniProt O76090); whole-cell patch clamp; HEK293 transiently expressing channel; concentration not given, membrane potential 100 mV).
The inhibition of `Cc1ccc(OC[C@H]2CN(CCN3CCc4ccccc43)CCO2)cn1` is reported as 72.1% (HTR2A; radioligand binding; concentration not given, added: [3H]ketanserin).
`NS(=O)(=O)c1cc2c(cc1Cl)NC(C1CC3C=CC1C3)NS2(=O)=O` (stereo not shown) has a dimer fraction of 50.4% (Glutamate receptor 2 (Gria2, Rattus norvegicus, UniProt P19491, del528-650/N775S/S652T/V651G); SAXS; 0.15 mM, added: LBD 0.1 mM).
With `O=C1N[C@H](c2cncc(C#Cc3ccccc3)c2)[C@@H](c2ccccc2Cl)O1` the receptor occupancy was 94.4 ± 0.4% (Metabotropic glutamate receptor 5 (Macaca mulatta, UniProt A0ACM8QRY8); PET; rhesus monkey; intravenous, 1.0 mg/kg).
`CNc1ncc2c(/C=C/C(=O)N3CCC(OC)CC3)nn(Cc3cccc(C(F)(F)F)c3)c2n1` has a remaining activity of 93% (Serine/threonine-protein kinase Nek6 (NEK6, Homo sapiens, UniProt Q9HC98); kinase activity, inhibitor; 1 µM; reference: untreated control).
`O=C(COP(=O)(O)O)[C@@H](O)[C@H](O)[C@H](O)COP(=O)(O)O`: “thermal stability ratio” 0.699 (Long-chain-fatty-acid--CoA ligase 5 (Homo sapiens, UniProt Q9ULC5); thermal proteome profiling, item: ACSL5; HepG2 cell lysate; concentration not given, 57 over 37 °C, mean; reference: compound over control).
The fraction bound of `O=C(O)C1CCCNC1` (stereo not shown) is reported as 0.00174 (Sodium- and chloride-dependent taurine transporter (SLC6A6, Homo sapiens, UniProt P31641, Y138A); binding, microscale thermophoresis; 35.1 nM, fitted curve; higher = more binding).
`CC1(C)CC2(C)OC(=O)NC2(C)c2ccccc21` (stereo not shown) — result for “log fold enrichment”: -0.248 (Histone acetyltransferase type B catalytic subunit (Homo sapiens, UniProt O14929); binding, affinity selection mass spectrometry; reference: other proteins in batch).
The inhibition of `O=C(CN1CCO[C@H](COc2cccc(Cl)c2)C1)N1CCc2ccccc21` is reported as 60% (HTR2A; radioligand binding; concentration not given, added: [3H]ketanserin).
`COc1cc(O)c2c(c1)oc(=O)c1c3cc(O)c(O)cc3oc21` has a α-Helix content of 20.8% (Alpha-glucosidase MAL12 (MAL12, Saccharomyces cerevisiae S288c, UniProt P53341); circular dichroism; molar ratio 1:1).
`O=C1CC[C@@H](C(=O)O)O1` has a thermal shift of 5.53 °C (Uncharacterized protein (Pelagibacter ubique, UniProt Q4FKX4); differential scanning fluorimetry; Candidatus Pelagibacter ubique; in-house screen).
The reaction rate of `Nc1nc2c(ncn2[C@@H]2O[C@H](COP(=O)(O)O)[C@@H](O)[C@H]2O)c(=O)[nH]1` is reported as 9.79 s⁻¹ and 8.5 s⁻¹ and 8.92 s⁻¹ (GUK1 (Homo sapiens, UniProt Q16774, D103A); enzyme activity, NADH-coupled; 125 µM).
With `Cc1ncccc1OC[C@H]1CN(CCN2CCc3ccccc32)CCO1` the inhibition was 2.1% (5-hydroxytryptamine receptor 2C (HTR2C, Homo sapiens, UniProt P28335); radioligand binding; concentration not given, added: [3H]mesulergine).
`Nc1ncnc2c1ncn2[C@@H]1O[C@H](CO[P@](=O)(O)O[P@](=O)(O)O[P@@](=O)(O)S)[C@@H](O)[C@H]1O` has a ΔH of -1.8 kcal/mol (GUK1 (Homo sapiens, UniProt Q16774); ITC; molar ratio 0.297).
Under current, `CC(=O)OCC[N+](C)(C)C` is recorded as “decreased” (CHRNB4/CHRNA6 (Homo sapiens, UniProt P30926+Q15825, E185W); two-electrode voltage clamp; Xenopus oocytes; α6β4 E155W mutant; reference: wild type).
`O=c1cc(-c2ccc([N+](=O)[O-])cc2)[nH]c2c(-c3ccc(Cl)cc3)c(Cc3ccccc3)nn12` — result for “melting temperature shift”: 3.8 °C (Eukaryotic translation initiation factor 3 subunit J (Homo sapiens, UniProt O75822); thermal stability, binder, thermal proteome profiling; RD, cell lysate; 50 µM, 0.5% DMSO; reference: DMSO vehicle).
Under “log2 fold change”, `c1coc(-c2n[nH]cc2-c2ccnc3ccccc23)c1` is recorded as -0.27 (Protein kinase C-like 1; kinase binding, MIB/MS competition; Candida albicans lysate; 1 µM; reference: DMSO, negative = stronger binding).
For `C[C@H](CCC(C)(C)O)[C@H]1CC[C@H]2[C@@H]3CC=C4C[C@@](C)(O)CC[C@]4(C)[C@H]3CC[C@]12C`, the current response was 156 ± 5.6% (Glutamate NMDA receptor; GRIN1/GRIN2B (GRIN1/GRIN2B, Homo sapiens, UniProt Q05586+Q13224, P553A); positive allosteric modulator, two-electrode voltage clamp; Xenopus oocytes expressing GluN2B-P553A; 10 µM, 0.02% cremophor, added: 100 µM glutamate and glycine; reference: without compound).
`[H]/N=C(/N)NCC(=O)O` — result for “normalised MST signal”: 0.0233 (Sodium- and chloride-dependent taurine transporter (SLC6A6, Homo sapiens, UniProt P31641, L306A); binding, microscale thermophoresis; 31.3 µM, room temperature, added: 50 nM labelled protein; higher = more binding).
`CCCCC[S+]([O-])c1n[nH]c(N)n1` (stereo not shown) gave a fold enrichment of 1.46 (BIRC3 BIR1 domain; binding, affinity selection mass spectrometry; reference: other proteins in batch).
The Km of `C[C@H](O)c1ccc(NS(=O)(=O)c2ccc(OCC3CCC3)c(Cl)c2)c2nn(C)cc12` is reported as 68 µM (17-beta-hydroxysteroid dehydrogenase 13 (Homo sapiens, UniProt Q7Z5P4); substrate, NADH fluorescence).
With `O=C(O)c1ccc(Nc2ncc3c(n2)-c2ccc(Cl)cc2C(c2c(F)cccc2F)=NC3)cc1` the remaining activity was 110% (MEK1(h); kinase activity; 1 µM).
`Nc1ccc2cc3ccc(N)cc3nc2c1`: “entropic contribution TΔS° of binding” -20.2 ± 1.43 kcal/mol (Chymotrypsinogen A, activated (alpha-chymotrypsin) (Bos taurus, UniProt P00766); isothermal titration calorimetry; concentration not given, 25 °C, added: 0.5 M sarcosine).
`COc1cccc(OC[C@@H]2CN(CCN3CCc4ccccc43)CCO2)c1` has an inhibition of 78% (HTR2A; radioligand binding; concentration not given, added: [3H]ketanserin).
With `Cc1cccc(N2CC(C(=O)O)CC2=O)c1` (stereo not shown) the fold enrichment was 0.986 (BIRC3 BIR1 domain; binding, affinity selection mass spectrometry; reference: other proteins in batch).
`CN(C)CC#Cc1ccc2[nH]c3c(c2c1)-c1nc(N)ncc1CCC3` has a remaining binding of 32% (Serine/threonine-protein kinase RIO2 (RIOK2, Homo sapiens, UniProt Q9BVS4); DiscoverX scanMAX; 1 µM; reference: control).
`CO[C@H]1O[C@H](COS(=O)(=O)O)[C@@H](O[C@@H]2O[C@@H](C(=O)O)[C@@H](O[C@H]3O[C@H](COS(=O)(=O)O)[C@@H](O[C@@H]4O[C@H](C(=O)O)[C@@H](O[C@H]5O[C@H](COS(=O)(=O)O)[C@@H](O)[C@H](O)[C@H]5NS(=O)(=O)O)[C@H](O)[C@H]4O)[C@H](OS(=O)(=O)O)[C@H]3NS(=O)(=O)O)[C@H](O)[C@H]2OS(=O)(=O)O)[C@H](O)[C@H]1NS(=O)(=O)O` — result for “salt-independent binding energy share”: 58% (Beta-2-glycoprotein 1, domain V (APOH, Homo sapiens, UniProt P02749, V266L); isothermal titration calorimetry; added: 100 mM NaCl; reference: total free energy).
`N#Cc1ccn2c(-c3ccncc3)c(-c3ccc(F)cc3)nc2c1` — result for “log2 fold change”: -0.283 (Protein kinase C-like 1; kinase binding, competitor, MIB/MS competition, item: PKC1; Candida albicans cell lysate; 10 µM; reference: DMSO).
For `CC[C@@H](C)[C@@H](NC(=O)[C@@H](Cc1ccc(O)cc1)NC(=O)[C@H]1CCCN1C(=O)[C@@H](CCCNC(=N)N)NC(=O)[C@H](N)Cc1c[nH]cn1)C(=O)N[C@H](C)C(=O)N[C@H](Cc1c[nH]cn1)C(=O)N[C@H](CCCNC(=N)N)C(=O)N[C@@H](C(=O)N[C@H](Cc1ccc(O)cc1)C(=O)N[C@H](CO)C(=O)N[C@H](Cc1ccccc1)C(N)=O)C(C)C`, “surface TFRC expression” read 0.966 and 0.965 (Transferrin receptor protein 1 (Tfrc, Mus musculus, UniProt Q62351); flow cytometry; RAW264.7; 6 h, pH 6, unit not given; reference: 0 h).
For `Cc1nc(CSc2nc(SCc3ccc(C(C)C)cc3)nc(=O)[nH]2)cs1`, the relaxed DNA was 0% (DNA topoisomerase 2-alpha (TOP2A, Homo sapiens, UniProt P11388); DNA relaxation; 500 µM, replicate 2).
`Nc1ncnc2c1ncn2[C@@H]1O[C@H](COP(=O)(O)OP(=O)(O)OP(=O)(O)O)[C@@H](O)[C@H]1O` gave a normalized current of 0.963 and 0.952 and 0.988 (P2X purinoceptor 7 (P2rx7, Rattus norvegicus, UniProt Q64663, I214A/Q143A/R125A); ion current, agonist, two-electrode voltage clamp; Xenopus oocytes; 2700 µM).
`Nc1ncnc2c1ncn2[C@@H]1O[C@H](COP(=O)(O)CP(=O)(O)OP(=O)(O)O)[C@@H](O)[C@H]1O` has a calcium influx of 0% and 0.457% (P2X purinoceptor 1 (P2RX1, Homo sapiens, UniProt P51575, M214A); calcium influx; 10 nM; reference: ionomycin response).

Repeated from above:
`CC1(C)CC2(C)OC(=O)NC2(C)c2ccccc21` (stereo not shown) — result for “log fold enrichment”: -0.248 (Histone acetyltransferase type B catalytic subunit (Homo sapiens, UniProt O14929); binding, affinity selection mass spectrometry; reference: other proteins in batch).
The inhibition of `O=C(CN1CCO[C@H](COc2cccc(Cl)c2)C1)N1CCc2ccccc21` is reported as 60% (HTR2A; radioligand binding; concentration not given, added: [3H]ketanserin).
